Experimental data of several laboratories.
Every numbered part comes from another study and shows a few of its results, in no order.
Sequence of UniProt P54753 (whole entry, looked up): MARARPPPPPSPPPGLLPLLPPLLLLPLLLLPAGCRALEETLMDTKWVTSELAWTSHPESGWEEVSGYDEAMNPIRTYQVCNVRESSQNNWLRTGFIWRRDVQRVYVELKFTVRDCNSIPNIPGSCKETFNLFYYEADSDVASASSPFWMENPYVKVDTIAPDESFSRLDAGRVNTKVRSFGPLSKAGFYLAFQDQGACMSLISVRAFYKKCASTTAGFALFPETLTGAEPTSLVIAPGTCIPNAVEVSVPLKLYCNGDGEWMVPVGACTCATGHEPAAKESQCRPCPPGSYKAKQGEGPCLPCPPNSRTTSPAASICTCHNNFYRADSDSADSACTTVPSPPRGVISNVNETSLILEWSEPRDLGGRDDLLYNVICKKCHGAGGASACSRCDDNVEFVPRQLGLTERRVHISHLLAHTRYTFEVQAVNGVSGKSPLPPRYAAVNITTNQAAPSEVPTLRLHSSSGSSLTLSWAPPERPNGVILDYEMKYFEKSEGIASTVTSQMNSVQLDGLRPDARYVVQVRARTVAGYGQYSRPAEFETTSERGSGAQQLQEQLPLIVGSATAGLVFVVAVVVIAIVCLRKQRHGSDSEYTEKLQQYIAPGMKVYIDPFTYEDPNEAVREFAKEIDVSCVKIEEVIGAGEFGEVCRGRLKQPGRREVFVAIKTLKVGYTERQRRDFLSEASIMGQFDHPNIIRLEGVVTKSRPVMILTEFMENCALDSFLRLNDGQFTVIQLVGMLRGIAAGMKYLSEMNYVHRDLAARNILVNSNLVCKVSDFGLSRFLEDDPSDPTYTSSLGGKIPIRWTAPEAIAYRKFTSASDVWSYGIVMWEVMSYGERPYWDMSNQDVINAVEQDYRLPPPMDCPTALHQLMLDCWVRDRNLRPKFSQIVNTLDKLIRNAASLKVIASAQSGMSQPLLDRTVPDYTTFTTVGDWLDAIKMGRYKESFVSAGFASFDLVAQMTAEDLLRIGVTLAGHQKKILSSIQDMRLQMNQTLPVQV

Sample 1
Target: POU, POU domain (Salpingoeca helianthica)
Method: Spec-seq
Molecule type: double-stranded DNA, one strand shown
Matrix: in vitro
Concentration: not given
Setting: whole probe, mean of replicates
Reference: not given
Direction: lower = stronger binding
Shared flanks, not repeated: GAGTCGTCTCGTCAGCAC … CCGTAGAGCACTCAGGTC
Residues (chain): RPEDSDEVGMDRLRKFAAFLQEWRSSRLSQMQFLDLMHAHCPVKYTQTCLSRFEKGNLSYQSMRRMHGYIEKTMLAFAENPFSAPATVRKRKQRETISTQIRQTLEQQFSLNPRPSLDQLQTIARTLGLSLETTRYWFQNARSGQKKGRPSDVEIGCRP
`GAGATAAT` — result for “relative binding energy”: 0.207 ln ratio.
Under “relative binding energy”, `ACCGTAAT` is recorded as 0.673 ln ratio.
For `ATGCACCC`, “relative binding energy” read 1.81 ln ratio.
For `ATGCTCAG`, “relative binding energy” read 1.2 ln ratio.
Under “relative binding energy”, `TATGTAAT` is recorded as 0.509 ln ratio.
`TGATTAAT` — result for “relative binding energy”: -0.775 ln ratio.
`CCAATAAT` — result for “relative binding energy”: 0.128 ln ratio.
`CACTTAAT` — result for “relative binding energy”: 0.147 ln ratio.

Sample 2
Target: RING finger protein unkempt homolog, zinc fingers 1-6, GST-SBP tag (UNK, Homo sapiens, UniProt Q9C0B0, residues 30-357)
Method: RNA Bind-n-Seq
Molecule type: RNA
Matrix: in vitro
Concentration: not given
Setting: RNA with constant flanks, ends assumed
Reference: input RNA pool
Direction: higher = stronger binding
Shared flanks, not repeated: GGGAGUUCUACAGUCCGACGAUC … CAACAGAGGAUUGAGCAUCA
Target sequence (chain): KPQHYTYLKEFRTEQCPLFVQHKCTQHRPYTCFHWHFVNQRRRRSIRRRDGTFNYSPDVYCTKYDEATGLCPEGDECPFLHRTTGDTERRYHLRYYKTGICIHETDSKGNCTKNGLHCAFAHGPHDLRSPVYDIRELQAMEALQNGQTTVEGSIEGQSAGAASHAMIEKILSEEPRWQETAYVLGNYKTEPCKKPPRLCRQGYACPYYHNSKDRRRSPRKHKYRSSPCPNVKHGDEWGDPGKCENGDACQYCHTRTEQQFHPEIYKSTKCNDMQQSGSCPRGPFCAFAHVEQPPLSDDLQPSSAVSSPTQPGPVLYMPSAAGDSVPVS
With `AUGGAGUAGAUUGUACAUUAAAUGUUUUGUUUCUUUACAUUUUUAUGUUCUGAGUUUUGAAACCGUUUUAUGAAAUUUCUUUAUUUUUCAUUGCAUAGACUGUUAAUAUGUAUAUAAUAC` the bound/input enrichment was 0.86 ratio.
For `GUGACCUGUGAGGACAUAAUGCCUUGGUUUUUUCUAAUGUAGAUGAUAUGGCUGUGAUACAUCCGGGCCAGCGUUAACCUCUGCUCCUCCUCCCUCUGUAGUUUUUACCUACAAUCAAUU`, the bound/input enrichment was 0.278 ratio.
For `CUGAUUGUGGACAACAGCAUGGCUCCAGCCUCCGAUCUUGCACUGCCCUUGGAAACAAAAGCCGCAACAGUUCCAAUUAAAGACAAAGGAACUGUACAGACUGAAGAAAAACCACGUGAA`, the bound/input enrichment was 0.0972 ratio.
`UGAAUACACAGUACAUCAUACAUCCUUUACAAGCAAGUUCAAUGGAGAUUACGUUGAAAUCACCGAAGAUGCAAAUGACCUUUCAAAGUCAACACAAUGUGUUCUGAAACCUCGUGACUA` gave a bound/input enrichment of 0.159 ratio.
The bound/input enrichment of `CUGGACGAGUUUCUAGUGAAAAAUGACCCCUGCCGAGCACGAGGCAGAACUAACACCGAACUCCGAGAGAAAUUCAUCCUGCCAGAAGGGGCAUCUCAGGGGAUGACUCCAUUCCGGUCA` is reported as 0.114 ratio.
`UGAAGUGGUUUUUGUGGGUGUGAAACAAAUGGUGAGAAUUUGAAUUGGUCCCUCCUAUUACCGUAUUGAAAUUAAGUCUACUUAAUUUAUCAAGUCAUGUUCAUGCCCUGAUUUUAUAUA` has a bound/input enrichment of 0.453 ratio.
With `GACAGAGAGGCACCUGGGUCAGUAUUAGUCUAUUUAUCAGAGGUGUAAAUAAUCUAUGUACCGUUUUUCUCCUUUUAGAUUAUUUUGUAUUUGUUUAAAAGAAGUUUUGUCAAAAUACAA` the bound/input enrichment was 6.27 ratio.
The bound/input enrichment of `AUGGAACAGAAACAUAGAGAGGAACUGGAGCAAUUGAAGCUGACUACUAAGGAGAAUAAGACCGAUUCUGUUGCUGUUAACAUUUCAAACUUGGUGCUUGAGAAUCAGCCACCUCGGAUA` is reported as 0.261 ratio.

Mixed results
With `PhoQ, residues 284 288 289 292 302 303 SLSLLA` the fold induction was 5.04 (PhoP, residues 12 14 15 18 19 VHSCL (Escherichia coli, UniProt P23836); Sort-seq, item: YFP reporter; E. coli; PhoQ-PhoP variant library, added: 10 µM Mg2+; reference: high Mg2+ state, higher = stronger signaling).
The remaining activity of O=C1NC(=O)C(c2cn(CCCn3ccnc3)c3ccccc23)=C1Nc1ccccc1 is reported as 99.7% (Ephrin type-B receptor 3 (EPHB3, Homo sapiens, UniProt P54753); enzyme activity, inhibitor; 0.5 µM; reference: control).
`DDX46 (Homo sapiens, UniProt Q7L014)`: cross-linked residues “K907 to K258” (PNMA8A (Homo sapiens, UniProt Q86V59); cross-linking MS; cells; added: BSPNO).

For quick reference, copied from above (sample 2):
With `AUGGAGUAGAUUGUACAUUAAAUGUUUUGUUUCUUUACAUUUUUAUGUUCUGAGUUUUGAAACCGUUUUAUGAAAUUUCUUUAUUUUUCAUUGCAUAGACUGUUAAUAUGUAUAUAAUAC` the bound/input enrichment was 0.86 ratio.
For `GUGACCUGUGAGGACAUAAUGCCUUGGUUUUUUCUAAUGUAGAUGAUAUGGCUGUGAUACAUCCGGGCCAGCGUUAACCUCUGCUCCUCCUCCCUCUGUAGUUUUUACCUACAAUCAAUU`, the bound/input enrichment was 0.278 ratio.
